Measured values pooled from the literature.
Compare with care: the assays were run in different laboratories. Numbers after ± are the reported error.
Organism: Arabidopsis thaliana

| Structure (SMILES) | assay | test system | setting | how to read | endpoint | result |
| --- | --- | --- | --- | --- | --- | --- |
| CN1C[C@H](c2cccc(C(F)(F)F)c2)[C@@H](C(=O)Nc2ccccc2F)C1=O |  | seedlings | 5 µM, 24 h |  | N-carbamoyl-aspartate level | 24.2 ± 12.2 ng/g fresh weight |
| CC(C)Oc1cccc(NC(=O)CCCN2C(=O)c3ccccc3C2=O)c1 | reporter protein, item: DII-VENUS |  | 50 µM |  | time to complete reporter loss | 40 min |
| CC1=C(C)C(Oc2c(F)cc3c(C)cc(=O)oc3c2F)OC1=O (racemic) |  | Atd14-1 mutant | concentration not given |  | hypocotyl elongation | no effect |
| CC1=CC(OC=C2C(=O)OC3c4ccccc4CC23)OC1=O (racemic) |  | Atd14-1 htl-3 | concentration not given, red light |  | hypocotyl length | no effect |
| CN1C(=O)C(O)(C(=O)O)Oc2ccccc21 (stereo not drawn) |  | Col-0 | 50 µg/mL |  | seed germination | inhibited |
| CCc1cccc2c(C(=O)COC(=O)C34CC5CC(CC(Br)(C5)C3)C4)c[nH]c12 | qRT-PCR, item: STH7 | seedlings 10 days old | 20 µM, 24 h, added: (+)-GR24 1 µM | baseline: GR24 alone | mRNA level | decreased |
| CCc1nc(-c2cccc(NC(=O)c3cccc(OC)c3)c2)no1 | root growth | agar plates |  |  | IC50 | 19 µM |
| COC1CCC(N(C(=O)C2CCC(C)CC2)c2cc(C3=CCCCC3)sc2C(=O)O)CC1 (stereo not drawn) |  | wild type, seedling nuclear fraction | 30 µM, 2 days |  | protein O-fucosylation | no effect |
| O=C(Cc1ccc(O)c(O)c1)N(O)Cc1ccc(F)cc1 |  | Col-0, excised stem nodes | 100 µM, added: NAA 1 µM | baseline: wild type | advancement of bud outgrowth | 3 days |
